Measurements pooled from the literature.
A part holds a random share of what one study measured.
Chain of UniProt Q9BWU1 (whole entry, looked up): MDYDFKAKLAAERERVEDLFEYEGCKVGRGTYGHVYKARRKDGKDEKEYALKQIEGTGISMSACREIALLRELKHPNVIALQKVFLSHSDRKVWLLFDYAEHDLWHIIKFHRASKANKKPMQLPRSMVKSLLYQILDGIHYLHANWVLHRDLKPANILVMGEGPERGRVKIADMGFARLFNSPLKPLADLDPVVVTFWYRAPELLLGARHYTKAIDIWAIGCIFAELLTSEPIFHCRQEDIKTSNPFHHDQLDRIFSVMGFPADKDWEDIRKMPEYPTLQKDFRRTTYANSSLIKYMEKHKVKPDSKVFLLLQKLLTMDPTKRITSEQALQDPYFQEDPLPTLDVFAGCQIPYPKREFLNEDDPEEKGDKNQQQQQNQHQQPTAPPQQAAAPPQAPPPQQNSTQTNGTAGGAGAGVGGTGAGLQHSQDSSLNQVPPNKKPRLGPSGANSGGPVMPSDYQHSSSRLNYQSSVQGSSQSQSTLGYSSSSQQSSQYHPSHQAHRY
Chain of UniProt Q96SB4 (whole entry, looked up): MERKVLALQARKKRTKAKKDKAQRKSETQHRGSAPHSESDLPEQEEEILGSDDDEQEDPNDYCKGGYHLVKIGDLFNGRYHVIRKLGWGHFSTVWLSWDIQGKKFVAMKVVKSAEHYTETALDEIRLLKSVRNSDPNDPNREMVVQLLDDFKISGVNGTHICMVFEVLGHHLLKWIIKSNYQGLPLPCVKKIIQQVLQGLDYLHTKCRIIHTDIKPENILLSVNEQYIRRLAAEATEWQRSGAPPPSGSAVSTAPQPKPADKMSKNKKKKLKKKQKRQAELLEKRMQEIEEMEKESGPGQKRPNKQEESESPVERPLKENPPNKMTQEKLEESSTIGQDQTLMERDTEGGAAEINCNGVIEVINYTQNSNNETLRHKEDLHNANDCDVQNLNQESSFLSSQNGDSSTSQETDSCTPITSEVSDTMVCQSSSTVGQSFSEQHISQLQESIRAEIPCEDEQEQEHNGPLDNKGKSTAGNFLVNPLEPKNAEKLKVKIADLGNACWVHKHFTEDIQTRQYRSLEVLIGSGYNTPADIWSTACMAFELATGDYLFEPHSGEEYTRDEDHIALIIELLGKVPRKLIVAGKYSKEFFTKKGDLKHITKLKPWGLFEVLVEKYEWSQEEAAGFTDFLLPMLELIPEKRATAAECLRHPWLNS
Chain of UniProt Q14680 (whole entry, looked up): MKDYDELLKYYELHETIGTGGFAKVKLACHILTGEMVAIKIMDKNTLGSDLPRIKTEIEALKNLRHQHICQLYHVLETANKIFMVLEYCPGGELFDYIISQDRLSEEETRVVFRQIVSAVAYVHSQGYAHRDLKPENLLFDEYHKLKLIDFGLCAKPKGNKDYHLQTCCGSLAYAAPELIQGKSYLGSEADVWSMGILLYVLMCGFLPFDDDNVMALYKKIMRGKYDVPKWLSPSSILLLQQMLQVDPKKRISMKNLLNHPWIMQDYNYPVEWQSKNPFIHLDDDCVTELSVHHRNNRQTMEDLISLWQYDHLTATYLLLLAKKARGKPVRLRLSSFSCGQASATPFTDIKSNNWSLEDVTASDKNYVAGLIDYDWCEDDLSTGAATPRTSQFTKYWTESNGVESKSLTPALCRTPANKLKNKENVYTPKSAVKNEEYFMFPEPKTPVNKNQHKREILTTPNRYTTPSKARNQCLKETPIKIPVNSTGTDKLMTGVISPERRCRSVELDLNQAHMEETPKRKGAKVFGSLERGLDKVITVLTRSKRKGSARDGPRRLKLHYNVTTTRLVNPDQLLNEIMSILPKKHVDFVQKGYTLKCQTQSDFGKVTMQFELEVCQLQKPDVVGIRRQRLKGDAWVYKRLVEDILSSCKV

Sample 1
Target: RNA binding protein fox-1 homolog 2, RRM domain, GST-SBP tag (RBFOX2, Homo sapiens, UniProt O43251-10, residues 100-194)
Technique: RNA Bind-n-Seq
Form: RNA
Matrix: in vitro
Tested at: 365 nM
Setting: natural RNA segment, single round, ends assumed
Reference: no-protein control
Reading: higher = stronger binding
All sequences stand within: GGGAGUUCUACAGUCCGACGAUC … UGGAAUUCUCGGGUGCCAA
Sequence	RBNS enrichment (R)
UCUCCUAACCUUGAGAUCCACCCUCCACAGCCUCCCAAACUGCUGGGAUUACAGGUGUGAGCCACCGCACGUAGCAUUUACAUUAGGUAUUACAAGUAAUGUAAAGAUGA	0.466
UGGCCAUGAUGGUCAGACCAAAGGUCAUCCCAGUCCACGGGAGGUCUCCUGUGGAAGGGUCCCGGAACAUAUGCAUGGCGUCUGCUCGCGGCAGGUGGCAGGUGGUGUUG	0.429
UCUAUCAACACCAUCGACGUUUGAGUGAAGAAACACACCCAGAAGAGAGAUGCACUAACAACUGGGGAUAGGGAUGGGGUCAGGGGGAGCCCAAGAUGGUGAUCUGCCCG	0.391
UUUGUAUUGUUUCAAUUGCAUCUCCCAGAUAAUGUGAAAAUGGUCCAGGAGAAGGCCAAUUCCUAUACGCAGCGUGCUUUAAAAAAUAAAUAAGAAACAACUCUUUGAGA	0.707
GCUGUAUCCUAGUAUCCCAGUGAAACUCUGAGUUGGAAUGAUUCCCUCUGGUCCUGCAUAUGCAGAGGACGGAGCAGGCUCAGCCCCCUGGAAGAUGAGCUCAAGGGGAG	0.474
AGAUAAAUGGGUAUACUGGAAUCCGAUGCCGUUUCUACAGUAAAGUGCAAUCUUCGUUGUUUUUGUAUUUAUUUGUAUGUUCAGAUCCAAAGGAUCCGUUGUAAAAAUAU	0.547
CCCCUCUGAGCCUUUUCUCCCCAGGGUAUGGCUCCUGCUGAGUUUCUUGUCCAGCAGGGCCUUGACAGGAAUCCAGGGAGUAGCUCCUGGCCAGAACCAGCCUCUGCGGG	0.429
UUUGCACCAGAAGCAUAUCAUUAUUUAUUGCUGUGAUUACUAUCUGUCAUCCACCUUGUACUAGAAAGUUUUAGCACUGAAUUAUUCCUUCUUCAUUGUUGUUUGUAUUU	0.655

Sample 2
Target: Histone acetyltransferase KAT6A, winged helix 2, GST fusion (KAT6A, Homo sapiens, UniProt Q92794, residues 85-181)
Technique: protein binding microarray
Form: double-stranded DNA, one strand shown
Matrix: in vitro
Tested at: not given
Setting: 8-mer, flanks averaged, mean of 2 arrays, mostly near background
Reference: not given
Reading: higher = stronger binding
Target sequence (chain): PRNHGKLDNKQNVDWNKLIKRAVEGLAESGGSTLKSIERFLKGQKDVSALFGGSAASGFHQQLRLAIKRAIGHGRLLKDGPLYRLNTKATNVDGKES
Sequence	E-score
TACAGCGA	-0.17
CGAGGGAC	-0.0232
CTAGGACC	-0.135
AAGGACTT	-0.0504
TAGAACAA	-0.134
ATACACTG	-0.101
ACGGCCCC	-0.101
TACTGCGA	-0.0388

Sample 3
Compound: Cc1nc(Cc2cccc(C(F)(F)F)c2)sc1-c1ccc(C(N)=O)nc1
Tested at: 1 µM
target	effect on	technique	remaining binding [%]
MELK (Homo sapiens, UniProt Q14680)	cell-free assay	competition with immobilised ligand	100
CDK19 (Homo sapiens, UniProt Q9BWU1)		competition binding	98
SRPK1 (Homo sapiens, UniProt Q96SB4)	cell-free assay	competition with immobilised ligand	75

Single results of other studies
Rela Rel homology region: Transcription factor p65, Rel homology region (Rela, Mus musculus, UniProt Q04207, residues 1-314)
Chain of UniProt Q04207 (1-314, looked up): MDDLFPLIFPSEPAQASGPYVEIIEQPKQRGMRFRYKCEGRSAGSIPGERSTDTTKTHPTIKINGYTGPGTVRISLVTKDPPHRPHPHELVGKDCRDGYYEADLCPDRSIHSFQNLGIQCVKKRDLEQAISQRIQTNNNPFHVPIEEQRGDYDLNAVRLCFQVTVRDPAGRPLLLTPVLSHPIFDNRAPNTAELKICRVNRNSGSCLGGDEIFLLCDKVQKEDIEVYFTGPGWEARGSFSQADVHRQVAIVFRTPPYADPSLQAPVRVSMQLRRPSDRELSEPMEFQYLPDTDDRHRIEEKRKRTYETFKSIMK
Molecule	tested on	test	system	setting	how to read	measurement	value
GGGGGTTTTT	Rela Rel homology region	surface plasmon resonance	double-stranded DNA, one strand shown, in vitro	1 nM to 1 µM, 10-bp κB site, 1:1 kinetic fit, 10 °C	higher = slower dissociation	dissociation half-life	7 s
CCC[C@@H]1NC(=O)CSC[C@@H](C(=O)OCC)N(C)C(=O)[C@H](CC(C)C)NC(=O)[C@@H](C)N(C)C(=O)[C@H](CC(C)C)NC(=O)[C@H](C)N(C)C(=O)[C@H]2CCCN2C(=O)[C@@H](CC(C)C)NC(=O)CN(CCC)C1=O			hydrocarbon/water			logD	0.697
GGGGAATTTT	Rela Rel homology region	surface plasmon resonance	double-stranded DNA, one strand shown, in vitro	1 nM to 1 µM, 10-bp κB site, 1:1 kinetic fit, 10 °C	higher = slower dissociation	dissociation half-life	7 s

For quick reference, copied from above (sample 1):
Sequence	RBNS enrichment (R)
UGGCCAUGAUGGUCAGACCAAAGGUCAUCCCAGUCCACGGGAGGUCUCCUGUGGAAGGGUCCCGGAACAUAUGCAUGGCGUCUGCUCGCGGCAGGUGGCAGGUGGUGUUG	0.429
UUUGUAUUGUUUCAAUUGCAUCUCCCAGAUAAUGUGAAAAUGGUCCAGGAGAAGGCCAAUUCCUAUACGCAGCGUGCUUUAAAAAAUAAAUAAGAAACAACUCUUUGAGA	0.707
